Measurements of several laboratories.
Protocols differ between the studies behind these lines.
HLA class I histocompatibility antigen, A alpha chain allele A*02:01: HLA class I histocompatibility antigen, A alpha chain, allele A*02:01 (Homo sapiens, UniProt P04439)
B1: PYCR2 R119C (Homo sapiens, UniProt Q96C36); chain MSVGFIGAGQLAYALARGFTAAGILSAHKIIASSPEMNLPTVSALRKMGVNLTRSNKETVKHSDVLFLAVKPHIIPFILDEIGADVQARHIVVSCAAGVTISSVEKKLMAFQPAPKVICCMTNTPVVVQEGATVYATGTHALVEDGQLLEQLMSSVGFCTEVEEDLIDAVTGLSGSGPAYAFMALDALADGGVKMGLPRRLAIQLGAQALLGAAKMLLDSEQHPCQLKDNVCSPGGATIHALHFLESGGFRSLLINAVEASCIRTRELQSMADQEKISPAALKKTLLDRVKLESPTVSTLTPSSPGKLLTRSLALGGKKD
B2: aspC A106G/A218G/F210I/I29V/I33V/I68L/I71L/N30D/N64T/S135A/T100S/V136I/V375I (Escherichia coli, UniProt P00509); chain MFENITAAPADPILGLADLFRADERPGKVDLGVGVYKDETGKTPVLTSVKKAEQYLLENETTKTYLGLDGLPEFGRCTQELLFGKGSALINDKRARTAQSPGGTGGLRVAADFLAKNTSVKRVWVSNPSWPNHKAIFNSAGLEVREYAYYDAENHTLDFDALINSLNEAQAGDVVLFHGCCHNPTGIDPTLEQWQTLAQLSVEKGWLPLIDFAYQGFGRGLEEDAEGLRAFAAMHKELIVASSYSKNFGLYNERVGACTLVAADSETVDRAFSQMKAAIRANYSNPPAHGASVVATILSNDALRAIWEQELTDMRQRIQRMRQLFVNTLQEKGANRDFSFIIKQNGMFSFSGLTKEQVLRLREEFGVYAVASGRINVAGMTPDNMAPLCEAIVAVL
B3: enzyme S252E/S281E/S285E/S287E (Schizosaccharomyces pombe, UniProt P78804); chain MSTPYEPEFQQAYKEIVGSIESSKLFEVHPELKRVLPIISIPERVLEFRVTWEDDKGNCRVNTGYRVQFNSALGPYKGGLRFHPSVNLSILKFLGFEQIFKNALTGLPMGGGKGGSDFDPKGKSDNEIRRFSQAFMRQLFRYIGPQTDVPAGDIGVTGFVVMHMFGEYKRLRNEYSGVVTGKHMLTGGSNIRPEATGYGVVYYVKHMIEHRTKGAETLKGKRVAISGSGNVAQYAALKCIQEGAIVKSISDEKGVLIAKTAEGLVPEEIHEIMALKEKRAEIADEAELCKKHHYIAGARPWTNVGEIDIALPCATQNEVSGEEAAALIKQGCRYVAEGSNMGSSAEAVEVFEKSRASGEGCWLAPGKAANAGGVAVSGLEMAQNAQFSTWTHAEVDAKLAGIMQNIFEQSTDVASKYCDSGSNNIPSLVDGANIAGFLKVATAMQAVGDWW
B4: enzyme (Azotobacter vinelandii, UniProt C1DN94); chain MSESPLRLDRLRDFVSALGELLDRHPDEESVLREGRSLLGELVRHDDWLPEEFAQPDPERYQQYLLHADSRQRFSVVSFVWGPGQTTPVHDHRVWGLIGMLRGAEDAQSFELGAEGLRPIGDPVRLSPGQVEAVSPRIGDIHRVFNASPDQPSISIHVYGANIGAVRRAVYLPDGSEKPFISGYSNQFLPNIWDQSKESARP
B5: enzyme Y24A (Nitrosopumilus maritimus, UniProt A9A5X4); chain MDSQKFDSIIFDCDGVLVDITQSADKTIDKTCRYVLKEFAKIDSITIDHKIIDGFKSSGGFNDEVDLVYAAILSLYTANKLNKKPSEFIYDVISNTDKTGIRSVQSYLESIYDVSEFLSKLGSLGDRHNNPVYSIFDQFFFGPELYGKLFDKQSKFSEEGMISNDKVILSVSLLETLQKEFGKKIAVVTGRGIESIRYSLKDMMDYFDTKNSAFLEDEPRELAKPNPATLIRAIQSMESKNCLYVGDSMEDYMMAKDAAQAGHSTTFCAIVGTSTNPEDRRKLFADSGVEMILESINDIPKVLNLV
B6: SCO6712 S292F/V290N (Streptomyces coelicolor, UniProt Q9XAL8); chain AKGITARTAPAGGEVRHLKMYAEKLADGQMGYGFEKGKASVPGPLIEVNEGDTLHIEFTNTMDVRASLHVHGLDYEISSDGTAMNKSDVEPGGTRTYTWRTHKPGRRDDGTWRPGSAGYWHYHDHVVGTEHGTGGIRNGLYGPVIVRRKGDVLPDATHTIVFNDMTINNRKPHTGPDFEATVGDRVEIVMITHGEYYHTFHMHGHRWADNRTGILTGPDDPSRVIDNKITGPADSFGFQIIAGEGVGAGAWMYHCHNQFHSDMGMVGLFLVKKPDGTIPGYEPHEHGGATAKSGESGEPTGGAAAHEHEH
UniProt P0A6A3, sequence (whole entry, looked up): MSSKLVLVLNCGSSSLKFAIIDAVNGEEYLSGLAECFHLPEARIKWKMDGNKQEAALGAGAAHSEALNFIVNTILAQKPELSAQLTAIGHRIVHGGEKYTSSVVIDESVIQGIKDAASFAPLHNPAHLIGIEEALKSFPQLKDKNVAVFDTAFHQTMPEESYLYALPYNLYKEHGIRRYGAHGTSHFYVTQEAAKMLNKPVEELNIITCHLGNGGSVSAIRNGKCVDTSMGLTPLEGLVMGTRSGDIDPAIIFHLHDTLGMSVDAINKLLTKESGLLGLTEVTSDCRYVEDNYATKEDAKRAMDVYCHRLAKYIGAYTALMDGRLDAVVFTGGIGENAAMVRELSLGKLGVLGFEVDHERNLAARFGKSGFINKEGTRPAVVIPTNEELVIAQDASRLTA
UniProt Q9FFF6, sequence (whole entry, looked up): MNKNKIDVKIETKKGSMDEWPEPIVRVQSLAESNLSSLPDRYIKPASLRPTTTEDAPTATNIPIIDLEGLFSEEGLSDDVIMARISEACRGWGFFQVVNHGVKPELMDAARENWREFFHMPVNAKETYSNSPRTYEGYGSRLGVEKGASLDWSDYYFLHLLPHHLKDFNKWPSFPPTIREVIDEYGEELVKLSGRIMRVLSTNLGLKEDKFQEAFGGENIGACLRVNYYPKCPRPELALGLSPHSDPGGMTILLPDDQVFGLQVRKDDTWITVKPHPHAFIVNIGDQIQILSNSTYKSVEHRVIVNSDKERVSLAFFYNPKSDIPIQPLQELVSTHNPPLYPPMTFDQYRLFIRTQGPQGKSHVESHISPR
UniProt P07004, sequence (whole entry, looked up): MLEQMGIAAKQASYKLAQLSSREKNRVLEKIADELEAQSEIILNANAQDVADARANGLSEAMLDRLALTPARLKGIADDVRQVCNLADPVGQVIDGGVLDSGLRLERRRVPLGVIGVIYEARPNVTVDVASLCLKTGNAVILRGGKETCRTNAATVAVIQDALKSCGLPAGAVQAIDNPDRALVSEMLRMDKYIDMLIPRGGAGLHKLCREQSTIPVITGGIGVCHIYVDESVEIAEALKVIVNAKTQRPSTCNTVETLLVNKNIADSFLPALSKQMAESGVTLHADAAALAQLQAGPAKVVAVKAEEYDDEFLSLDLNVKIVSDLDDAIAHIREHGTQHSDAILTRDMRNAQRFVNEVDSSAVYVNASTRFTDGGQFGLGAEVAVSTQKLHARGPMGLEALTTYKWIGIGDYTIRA

Molecule = proA (Escherichia coli, UniProt P07004); tested on = N[C@@H](CCC=O)C(=O)O; test = steady-state kinetics; conditions = pH 7.6, apparent, with: 1 mM NADP+; quantity = Km; result = 290 µM
Molecule = enzyme (Cryptosporidium parvum, UniProt Q8IS93); tested on = NC(=O)C1=CN([C@@H]2O[C@H](COP(=O)(O)OP(=O)(O)OC[C@H]3O[C@@H](n4cnc5c(N)ncnc54)[C@H](OP(=O)(O)O)[C@@H]3O)[C@@H](O)[C@H]2O)C=CC1; test = steady-state kinetics; conditions = pH 7.4, with: DTNB 4 mM; quantity = Km; result = 17.9 µM
Molecule = enzyme (Arabidopsis thaliana, UniProt Q9FFF6); tested on = CC/C=C\C[C@@H]1C(=O)CC[C@@H]1CC(=O)O; test = steady-state kinetics; conditions = pH 7.5, 20 °C; quantity = Km; result = 1.14 µM
Molecule = B1 (PYCR2 R119C); tested on = NC(=O)C1=CN([C@@H]2O[C@H](COP(=O)(O)OP(=O)(O)OC[C@H]3O[C@@H](n4cnc5c(N)ncnc54)[C@H](O)[C@@H]3O)[C@@H](O)[C@H]2O)C=CC1; test = steady-state kinetics; conditions = pH 7.5, 37 °C, apparent, cofactor varied, with: DL-P5C 5000 µM; quantity = Km; result = 34 µM
Molecule = IMQLMPFGC; tested on = HLA class I histocompatibility antigen, A alpha chain allele A*02:01; test = conformational ELISA; system = peptide; conditions = concentration not given; how to read = baseline: positive control peptide, direction not given; quantity = binding score; result = 62.7%
Molecule = B2; tested on = O=C(O)C(=O)Cc1ccccc1; test = steady-state kinetics; conditions = pH 7.5, 25 °C, with: PLP 20 µM, ammonium acetate 10 mM; quantity = Km; result = 210 µM
Molecule = ALMHWITQV; tested on = Jurkat T cells expressing 1G4 TCR; test = NFAT-eGFP reporter, flow cytometry; system = peptide; conditions = concentration not given, HLA-A*02:01 NY-ESO system; quantity = reporter activation; result = 2.07%
Molecule = QLIMQLMP; tested on = HLA class I histocompatibility antigen, A alpha chain allele A*02:01; test = conformational ELISA; system = peptide; conditions = concentration not given; how to read = baseline: positive control peptide, direction not given; quantity = binding score; result = 0.4%
Molecule = ackA (Escherichia coli, UniProt P0A6A3); tested on = Nc1ncnc2c1ncn2[C@@H]1O[C@H](COP(=O)(O)OP(=O)(O)OP(=O)(O)O)[C@@H](O)[C@H]1O; test = steady-state kinetics; conditions = pH 7.6, 25 °C, with: acetate; quantity = Km; result = 350 µM
Molecule = B3 (enzyme S252E/S281E/S285E/S287E); tested on = NC(=O)C1=CN([C@@H]2O[C@H](COP(=O)(O)OP(=O)(O)OC[C@H]3O[C@@H](n4cnc5c(N)ncnc54)[C@H](OP(=O)(O)O)[C@@H]3O)[C@@H](O)[C@H]2O)C=CC1; test = steady-state kinetics; conditions = pH 7, 30 °C, apparent; quantity = Km; result = 140 µM
Molecule = B4 (enzyme); tested on = NCCS; test = steady-state kinetics; conditions = pH 8, 25 °C, with: O2; quantity = Km; result = 26000 µM
Molecule = B5 (enzyme Y24A); tested on = N[C@H](COP(=O)(O)O)Cc1c[nH]cn1; test = steady-state kinetics; conditions = pH 7.8, 25 °C; quantity = Km; result = 276 µM
Molecule = B6 (SCO6712 S292F/V290N); tested on = CCn1c(=NN=c2sc3cc(S(=O)(=O)O)ccc3n2CC)sc2cc(S(=O)(=O)O)ccc21; test = steady-state kinetics; conditions = pH 7, 37 °C, NaCl 150 mM, with: O2 cosubstrate; quantity = Km; result = 830 µM

A few entries again:
Molecule = B1 (PYCR2 R119C); tested on = NC(=O)C1=CN([C@@H]2O[C@H](COP(=O)(O)OP(=O)(O)OC[C@H]3O[C@@H](n4cnc5c(N)ncnc54)[C@H](O)[C@@H]3O)[C@@H](O)[C@H]2O)C=CC1; test = steady-state kinetics; conditions = pH 7.5, 37 °C, apparent, cofactor varied, with: DL-P5C 5000 µM; quantity = Km; result = 34 µM
